Measurements pooled from the literature.
Compare with care: the assays were run in different laboratories. ± gives the spread as reported.

With `N=C(N)NCCC[C@@H]1NC(=O)[C@H](CCCNC(=N)N)NC(=O)[C@@H](CCCNC(=N)N)NC(=O)[C@@H](CCCNC(=N)N)NC(=O)[C@@H](C(c2ccccc2)c2ccccc2)NC(=O)[C@H](Cc2c[nH]c3ccccc23)NC(=O)[C@@H](C(c2ccccc2)c2ccccc2)NC1=O` the half-life was no less than 6 h (LC-MS; human plasma).
`CC1(C)OCCc2cc(C(=O)N3CCC(c4nc(-c5ccccc5)n[nH]4)CC3)ccc21` has a half-life of 0.08 h (human liver microsomes; pH 7.4, together with: NADPH).
`O=Cc1ccc2cccc(O)c2n1` has a half-life of 114 h (chemical stability, HPLC-MS; borate buffered saline; pH 10.2, no N-acetyl-lysine).
`CCCCC=CC(=O)NC(Cc1cc(F)cc(F)c1)C(=O)NC1COC(=O)C2CCCN2C(=O)C(C)NC(=O)C(C)N(C)C(=O)C2CCCN2C1=O` (centres unmarked) has a half-life of 0.435 h (H-D exchange, 1H NMR, measured: alanine amide hydrogen; CD3OD; 25 °C).
With `O=C1CCC(N2C(=O)c3ccc(O)cc3C2=O)C(=O)N1` (centres unmarked) the half-life was 56 h (D/H back-exchange, LC-HRMS; 0.1 M phosphate buffer in water; pH 7.4, 37 °C, mean of replicates).
`CC(C)C[C@H](NC(=O)[C@H](Cc1ccc(O)cc1)NC(=O)[C@H](CC(N)=O)NC(=O)[C@H](CO)NC(=O)[C@H](CCCNC(=N)N)NC(=O)[C@H](Cc1ccc(O)cc1)NC(=O)CNC(=O)[C@H](CCCNC(=N)N)NC(=O)[C@H](Cc1c[nH]cn1)NC(=O)[C@H](CO)NC(=O)[C@H](Cc1c[nH]cn1)NC(=O)[C@H](Cc1c[nH]cn1)NC(=O)[C@H](CCCCN)NC(=O)[C@H](CCC(=O)O)NC(=O)[C@H](Cc1c[nH]cn1)NC(=O)[C@H](Cc1ccccc1)NC(=O)[C@H](CCCCN)NC(=O)[C@H](CCCNC(=N)N)NC(=O)[C@H](CCCCN)NC(=O)[C@H](Cc1ccc(O)cc1)NC(=O)CNC(=O)[C@H](Cc1c[nH]cn1)NC(=O)[C@H](Cc1c[nH]cn1)NC(=O)[C@H](CCCNC(=N)N)NC(=O)[C@H](CCCCN)NC(=O)[C@H](C)NC(=O)[C@H](Cc1c[nH]cn1)NC(=O)[C@H](CO)NC(=O)[C@@H](N)CC(=O)O)C(=O)N[C@@H](Cc1ccc(O)cc1)C(=O)N[C@@H](CC(=O)O)C(=O)N[C@@H](CC(N)=O)C(=O)O` gave a half-life of 7.2 h (human parotid saliva; endogenous acidic PRPs).
`C=CC(=O)Nc1cccc(Cn2ncc3cnc(Nc4cnn(CCOC)c4)nc32)c1` gave a half-life of 3.17 h (human whole blood; 5 µM).
With `Clc1ncccn1` the half-life was 439 h (pH 7.4).
`COc1ccc2c(c1)C(=O)C(=C[O-])C2.[Na+]` gave a half-life of greater than 24 h (reactivity with N-α-acetyl-lysine, HPLC-MS; pH 10.2).
The half-life of `Clc1cccnc1` is reported as 27.4 h (pH 7.4).
The half-life of `O=C(c1ccc(-c2ccccc2)cc1)N1CCCCC1` is reported as 2.32 h (metabolic stability; human liver microsomes; 2 µM, pH 7.4).
For `Cc1c(Cc2cccc(OC(C)(C)C(=O)O)c2)c2ccc(C(=O)N[C@@H](C)c3cccc(OC(F)(F)F)c3)cc2n1C`, the half-life was 0.987 h (human liver microsomes).
`CC(=O)O[C@H]1C(=O)[C@@]2(C)[C@H]([C@H](OC(=O)c3ccccc3)[C@]3(O)C[C@H](OC(=O)[C@H](OCOP(=O)(O)O)[C@@H](NC(=O)c4ccccc4)c4ccccc4)C(C)=C1C3(C)C)[C@]1(OC(C)=O)CO[C@@H]1C[C@@H]2O` gave a half-life of greater than 2 h (HBSS; 10 µM, 2 h incubation, pH 6.5).
For `N[C@@H](CC(=O)O)C(=O)OC(C(=O)O)c1ccc(Br)cc1[N+](=O)[O-]` (mixture of isomers), the half-life was 11.2 ± 0.2 h (hydrolysis, 1H NMR; aqueous citrate-ammonium sulfate, 12.5% DMSO-d6; pH 4.2, room temperature, dark, isomer A).
`Cc1c(Cc2cccc(OC(C)(C)C(=O)O)c2)c2ccc(C(=O)N[C@H](C)c3cccc(C(C)(C)C)c3)cc2n1C` gave a half-life of 0.551 h (human liver microsomes).
For `O=Cn1nnc2ccccc21`, the half-life was 150 h (chemical stability, HPLC-MS; borate buffered saline; pH 10.2, no N-acetyl-lysine).
`CC[C@H](C)[C@H](NC(=O)[C@H](C)NC(=O)[C@H](CCC(=O)O)NC(=O)c1ccc2c(c1)C(=O)OC21c2ccc(O)cc2Oc2cc(O)ccc21)C(=O)N[C@@H](Cc1ccc(O)cc1)C(=O)N[C@@H](C)C(=O)N[C@@H](C)C(=O)N1CCC[C@H]1C(=O)N[C@@H](Cc1ccccc1)C(=O)N[C@@H](C)C(=O)N[C@@H](CCCCN)C(=O)N[C@@H](CCCCN)C(=O)N[C@@H](CCCCN)C(N)=O` gave a half-life of 0.0833 ± 0.0167 h (CE-LIF; HeLa cytosolic lysate; 37 °C).
`C/C(N)=N/C(=N\S(=O)(=O)c1ccc(C(F)(F)F)cc1)N1C[C@H](c2ccccc2)C(c2ccc(Cl)cc2)=N1` has a half-life of greater than 2 h (dog liver cytosol).
The half-life of `CC(C)Cn1cc(Cc2cccc(OC(C)(C)C(=O)O)c2)c2ccc(C(=O)N[C@@H](C)c3cccc(C(C)(C)C)c3)c(F)c21` is reported as 0.442 h (human liver microsomes).
`Brc1ncc(-c2ccccc2)o1` gave a half-life of 78.1 h (pH 7.4).
With `Cc1c(Cc2cccc(OC(C)(C)C(=O)O)c2)c2ccc(C(=O)N[C@@H](C)c3cc(C(C)(C)C)ccc3F)cc2n1CC(C)C` the half-life was greater than 1 h (mouse liver microsomes; 1 µM, together with: microsomes 1 mg/mL).
`O=CC1C(=O)Nc2ccccc21` (centres unmarked) has a half-life of 154 h (chemical stability, HPLC-MS; borate buffered saline; pH 10.2, no N-acetyl-lysine).
`CCC(=O)N[C@@H](C)C(=O)OCC(=O)N[C@@H](C)C(=O)O` gave a half-life of 25 to 30 h (depolymerisation; pH 6, 65 °C).
For `N=C(N)NCCC[C@@H]1NC(=O)[C@H](CO)NC(=O)[C@@H](NC(=O)[C@H](CO)NC(=O)[C@H](CO)NC(=O)[C@H](Cc2c[nH]c3ccccc23)NC(=O)CNC(=O)[C@H](CO)NC(=O)[C@@H](N)Cc2c[nH]c3ccccc23)CSSC[C@@H](C(=O)NCC(=O)O)NC(=O)[C@H](CO)NC1=O`, the half-life was 0.284 h (patients, plasma; intravenous, 10 mg/kg, thrice weekly, geometric mean).
For `CC(C)Cn1cc(Cc2cccc(OC(C)(C)C(=O)O)c2)c2cc(F)c(C(=O)N[C@@H](C)c3cccc(C(C)(C)C)c3)cc21`, the half-life was greater than 1 h (mouse liver microsomes; 1 µM, together with: microsomes 1 mg/mL).
The half-life of `CCCC/C=C/C(=O)N[C@@H](Cc1cc(F)cc(F)c1)C(=O)N[C@@H]1C(=O)N2CCC[C@H]2C(=O)N2CC[C@H](C)C[C@H]2C(=O)N[C@@H](C)C(=O)N2CCC[C@H]2C(=O)O[C@H]1C` is reported as 19.7 h (H-D exchange, 1H NMR, measured: alanine amide hydrogen; CD3OD; 25 °C).
`Cc1c(Cc2ccc(Cl)c(O[C@@H](C)C(=O)O)c2)c2ccc(C(=O)N[C@@H](C)c3ccc(C(C)(C)C)cc3)cc2n1CC1CCC1` gave a half-life of greater than 1 h (mouse liver microsomes; 1 µM, together with: microsomes 1 mg/mL).
`Cc1onc(-c2ccccc2)c1-c1ccc(S(=O)(=O)Cl)cc1` gave a half-life of 0.4 h (chemical stability, HPLC-MS; borate buffered saline; pH 10.2, no N-acetyl-lysine).
`Cc1c(Cc2ccc(Cl)c(O[C@@H](C)C(=O)O)c2)c2ccc(C(=O)N[C@@H](C)c3ccc(C(C)(C)C)cc3)cc2n1CC1CC1` gave a half-life of greater than 1 h (human liver microsomes; 1 µM, together with: microsomes 1 mg/mL).
`CN(Cc1cc(C2CC2)on1)C(=O)c1cccc(-c2ccc(F)cc2)c1` gave a half-life of 1.39 h (human liver microsomes; 2 µM, pH 7.5, without 1-aminobenzotriazole).
The half-life of `Cc1c(Cc2cccc(OC(C)(C)C(=O)O)c2)c2ccc(C(=O)N[C@@H](C)c3cccc(C(C)(C)C)c3)cc2n1CC(C)C` is reported as greater than 1 h (mouse liver microsomes; 1 µM, together with: microsomes 1 mg/mL).
For `Cl.NCc1ccc2c(c1)CN(C1CCC(=O)NC1=O)C2=O` (centres unmarked), the half-life was 0.0583 h (male Göttingen minipig, whole blood).

Some of these lines once more:
`CC1(C)OCCc2cc(C(=O)N3CCC(c4nc(-c5ccccc5)n[nH]4)CC3)ccc21` has a half-life of 0.08 h (human liver microsomes; pH 7.4, together with: NADPH).
`O=Cc1ccc2cccc(O)c2n1` has a half-life of 114 h (chemical stability, HPLC-MS; borate buffered saline; pH 10.2, no N-acetyl-lysine).
`CCCCC=CC(=O)NC(Cc1cc(F)cc(F)c1)C(=O)NC1COC(=O)C2CCCN2C(=O)C(C)NC(=O)C(C)N(C)C(=O)C2CCCN2C1=O` (centres unmarked) has a half-life of 0.435 h (H-D exchange, 1H NMR, measured: alanine amide hydrogen; CD3OD; 25 °C).
With `O=C1CCC(N2C(=O)c3ccc(O)cc3C2=O)C(=O)N1` (centres unmarked) the half-life was 56 h (D/H back-exchange, LC-HRMS; 0.1 M phosphate buffer in water; pH 7.4, 37 °C, mean of replicates).
